Published values collected from several papers.
Numbered parts are unrelated; each lists some results of a single study. Numbers after ± are the reported error.
Sequence of UniProt Q15139 (whole entry, looked up): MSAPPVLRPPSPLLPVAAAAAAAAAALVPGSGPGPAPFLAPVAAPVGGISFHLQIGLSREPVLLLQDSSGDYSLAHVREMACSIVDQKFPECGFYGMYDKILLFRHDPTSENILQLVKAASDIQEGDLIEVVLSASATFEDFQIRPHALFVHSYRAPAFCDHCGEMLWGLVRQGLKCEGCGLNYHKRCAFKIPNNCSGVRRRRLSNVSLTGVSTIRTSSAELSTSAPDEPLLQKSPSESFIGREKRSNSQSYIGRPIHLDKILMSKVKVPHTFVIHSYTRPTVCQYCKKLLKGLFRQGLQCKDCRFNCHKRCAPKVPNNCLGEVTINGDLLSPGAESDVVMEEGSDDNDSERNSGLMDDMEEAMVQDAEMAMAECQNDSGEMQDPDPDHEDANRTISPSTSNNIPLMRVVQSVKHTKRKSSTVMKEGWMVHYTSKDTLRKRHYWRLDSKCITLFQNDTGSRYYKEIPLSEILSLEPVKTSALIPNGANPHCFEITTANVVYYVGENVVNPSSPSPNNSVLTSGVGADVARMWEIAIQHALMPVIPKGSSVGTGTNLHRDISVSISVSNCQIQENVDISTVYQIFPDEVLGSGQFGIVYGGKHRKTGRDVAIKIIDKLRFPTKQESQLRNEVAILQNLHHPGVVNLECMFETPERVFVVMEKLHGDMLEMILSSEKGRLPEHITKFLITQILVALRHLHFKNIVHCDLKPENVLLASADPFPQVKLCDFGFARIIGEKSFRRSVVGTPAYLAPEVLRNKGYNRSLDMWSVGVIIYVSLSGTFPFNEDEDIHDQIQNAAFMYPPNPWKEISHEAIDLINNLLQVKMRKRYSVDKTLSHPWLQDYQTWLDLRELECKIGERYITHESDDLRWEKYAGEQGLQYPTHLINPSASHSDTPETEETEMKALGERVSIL
Sequence of UniProt P41240 (whole entry, looked up): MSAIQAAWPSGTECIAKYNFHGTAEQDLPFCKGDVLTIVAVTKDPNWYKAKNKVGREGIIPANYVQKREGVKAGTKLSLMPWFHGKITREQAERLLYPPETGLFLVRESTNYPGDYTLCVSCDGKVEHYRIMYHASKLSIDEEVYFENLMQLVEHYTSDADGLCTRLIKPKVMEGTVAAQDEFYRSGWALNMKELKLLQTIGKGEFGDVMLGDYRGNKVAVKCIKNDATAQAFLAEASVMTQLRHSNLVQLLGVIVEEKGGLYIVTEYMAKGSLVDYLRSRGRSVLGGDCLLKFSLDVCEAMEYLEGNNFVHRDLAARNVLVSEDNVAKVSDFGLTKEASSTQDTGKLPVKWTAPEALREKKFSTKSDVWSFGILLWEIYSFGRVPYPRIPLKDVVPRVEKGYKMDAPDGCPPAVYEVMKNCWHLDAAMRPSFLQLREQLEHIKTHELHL
Sequence of UniProt Q9Y243 (whole entry, looked up): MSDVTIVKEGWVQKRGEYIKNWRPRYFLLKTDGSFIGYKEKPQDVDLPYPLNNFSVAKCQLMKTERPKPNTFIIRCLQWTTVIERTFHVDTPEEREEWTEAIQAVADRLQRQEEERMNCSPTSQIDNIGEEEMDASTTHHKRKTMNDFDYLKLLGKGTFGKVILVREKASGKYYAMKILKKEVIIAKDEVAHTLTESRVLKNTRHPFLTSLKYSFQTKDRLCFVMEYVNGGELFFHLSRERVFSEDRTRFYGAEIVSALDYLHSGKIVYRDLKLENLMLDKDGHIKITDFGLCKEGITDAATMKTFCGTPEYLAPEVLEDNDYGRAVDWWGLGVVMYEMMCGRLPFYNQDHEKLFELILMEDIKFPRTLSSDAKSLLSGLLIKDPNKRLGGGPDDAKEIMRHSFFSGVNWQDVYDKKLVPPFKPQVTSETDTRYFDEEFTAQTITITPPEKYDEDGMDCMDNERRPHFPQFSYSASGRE
Sequence of UniProt Q9H093 (whole entry, looked up): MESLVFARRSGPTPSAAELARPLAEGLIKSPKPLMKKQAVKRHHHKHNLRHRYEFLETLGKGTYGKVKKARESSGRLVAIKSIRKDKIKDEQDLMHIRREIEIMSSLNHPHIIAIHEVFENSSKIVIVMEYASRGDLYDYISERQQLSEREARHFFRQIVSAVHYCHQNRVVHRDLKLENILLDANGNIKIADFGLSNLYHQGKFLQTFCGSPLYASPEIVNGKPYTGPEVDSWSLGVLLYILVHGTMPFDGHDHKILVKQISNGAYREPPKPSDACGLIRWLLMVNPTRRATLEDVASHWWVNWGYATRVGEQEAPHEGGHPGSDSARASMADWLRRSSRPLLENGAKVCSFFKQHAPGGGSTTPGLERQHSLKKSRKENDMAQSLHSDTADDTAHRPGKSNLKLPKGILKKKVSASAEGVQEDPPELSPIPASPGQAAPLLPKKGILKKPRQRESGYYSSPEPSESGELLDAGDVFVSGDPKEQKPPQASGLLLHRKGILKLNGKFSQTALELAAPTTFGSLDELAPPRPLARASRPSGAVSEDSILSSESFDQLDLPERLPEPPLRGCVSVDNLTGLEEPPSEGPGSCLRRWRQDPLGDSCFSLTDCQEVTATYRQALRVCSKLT
Sequence of UniProt P49336 (whole entry, looked up): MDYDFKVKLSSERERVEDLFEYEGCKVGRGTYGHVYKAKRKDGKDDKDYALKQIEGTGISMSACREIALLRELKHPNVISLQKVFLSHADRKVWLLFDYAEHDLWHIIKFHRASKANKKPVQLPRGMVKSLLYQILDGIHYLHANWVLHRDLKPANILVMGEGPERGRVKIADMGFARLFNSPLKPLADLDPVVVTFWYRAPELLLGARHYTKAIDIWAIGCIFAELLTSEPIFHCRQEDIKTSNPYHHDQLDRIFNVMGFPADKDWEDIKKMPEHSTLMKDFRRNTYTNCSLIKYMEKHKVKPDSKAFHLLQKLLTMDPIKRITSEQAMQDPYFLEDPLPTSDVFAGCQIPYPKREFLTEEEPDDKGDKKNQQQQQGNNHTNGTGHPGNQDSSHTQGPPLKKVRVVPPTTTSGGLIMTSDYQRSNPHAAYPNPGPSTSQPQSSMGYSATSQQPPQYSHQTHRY
Sequence of UniProt P35626 (whole entry, looked up): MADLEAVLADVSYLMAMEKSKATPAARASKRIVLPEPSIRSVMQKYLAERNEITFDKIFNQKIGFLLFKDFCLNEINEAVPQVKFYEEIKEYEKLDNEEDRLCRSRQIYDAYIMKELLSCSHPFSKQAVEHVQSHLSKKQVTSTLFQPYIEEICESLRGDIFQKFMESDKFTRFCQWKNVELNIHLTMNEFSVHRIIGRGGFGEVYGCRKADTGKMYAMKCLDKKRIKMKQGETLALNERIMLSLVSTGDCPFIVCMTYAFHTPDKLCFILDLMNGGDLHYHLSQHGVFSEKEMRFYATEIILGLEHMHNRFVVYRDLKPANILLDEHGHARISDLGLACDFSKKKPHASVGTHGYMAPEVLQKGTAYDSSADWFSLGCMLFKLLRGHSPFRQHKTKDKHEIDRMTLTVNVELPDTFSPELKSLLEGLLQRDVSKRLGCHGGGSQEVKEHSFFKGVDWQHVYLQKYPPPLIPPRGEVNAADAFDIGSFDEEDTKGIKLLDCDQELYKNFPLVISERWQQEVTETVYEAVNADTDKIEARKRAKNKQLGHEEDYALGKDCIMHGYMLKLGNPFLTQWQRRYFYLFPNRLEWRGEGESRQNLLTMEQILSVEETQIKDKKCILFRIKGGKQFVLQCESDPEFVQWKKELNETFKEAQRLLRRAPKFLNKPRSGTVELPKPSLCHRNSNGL

Sample 1
SMILES: CC(C)n1cnc(-c2ccc(F)cc2)c1-c1ncc(C(=O)Nc2ccc(N3CCN(C)CC3)cc2)[nH]1
Method: phase 2a trial
Species: idiopathic pulmonary fibrosis patients
Measurement: patients with osteoporosis
30 mg once daily, grade 2 emergent event: 0%
all arms pooled, grade 2 emergent event: 0%
all arms pooled, grade 5 emergent event: 0%
60 mg once daily, grade 3 emergent event: 0%
60 mg once daily, grade 5 emergent event: 0%
all arms pooled, grade 4 emergent event: 0%

Sample 2
SMILES: CO[C@H]1CC[C@H](CNc2ccc(S(=O)(=O)NC(=O)c3ccc(N4CCN(CC5=C(c6ccc(Cl)cc6)CC(C)(C)CC5)CC4)cc3Oc3cnc4[nH]ccc4c3)cc2[N+](=O)[O-])CC1
Read-out: cell-free assay
Method: competition with immobilised ligand
Tested at: 1 µM
Measurement: remaining binding
PRKD1 (Homo sapiens, UniProt Q15139): 76%
AKT3 (Homo sapiens, UniProt Q9Y243): 100%
NUAK2 (Homo sapiens, UniProt Q9H093): 95%
CSK (Homo sapiens, UniProt P41240): 76%
GRK3 (Homo sapiens, UniProt P35626): 79%
CDK8 (Homo sapiens, UniProt P49336): 91%

Sample 3
Target: Dual specificity protein kinase TTK (TTK, Homo sapiens, UniProt P33981)
Sequence of UniProt P33981 (whole entry, looked up): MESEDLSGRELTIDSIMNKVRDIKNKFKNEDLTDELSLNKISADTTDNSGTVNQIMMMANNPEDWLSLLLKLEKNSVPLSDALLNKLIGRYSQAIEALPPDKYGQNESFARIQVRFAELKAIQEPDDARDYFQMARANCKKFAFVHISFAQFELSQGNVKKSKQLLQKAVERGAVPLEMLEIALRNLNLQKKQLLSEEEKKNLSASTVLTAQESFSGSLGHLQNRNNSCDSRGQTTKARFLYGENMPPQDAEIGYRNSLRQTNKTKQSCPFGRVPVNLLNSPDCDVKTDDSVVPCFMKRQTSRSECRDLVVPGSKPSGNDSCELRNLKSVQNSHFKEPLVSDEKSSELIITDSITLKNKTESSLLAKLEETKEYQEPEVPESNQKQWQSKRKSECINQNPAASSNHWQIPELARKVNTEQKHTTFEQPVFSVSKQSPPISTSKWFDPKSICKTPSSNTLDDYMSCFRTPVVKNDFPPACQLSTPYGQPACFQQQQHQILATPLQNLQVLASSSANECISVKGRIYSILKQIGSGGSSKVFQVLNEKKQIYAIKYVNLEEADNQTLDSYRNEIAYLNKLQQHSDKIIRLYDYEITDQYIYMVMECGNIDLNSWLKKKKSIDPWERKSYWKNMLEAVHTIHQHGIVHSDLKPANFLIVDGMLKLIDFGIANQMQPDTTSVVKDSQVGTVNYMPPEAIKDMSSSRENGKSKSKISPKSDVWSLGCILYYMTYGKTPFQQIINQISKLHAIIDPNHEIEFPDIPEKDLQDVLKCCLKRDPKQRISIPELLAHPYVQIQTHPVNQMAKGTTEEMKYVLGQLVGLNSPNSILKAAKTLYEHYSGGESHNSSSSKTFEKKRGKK
Read-out: enzyme activity
Action: inhibitor
Tested at: 0.5 µM
Baseline: control
Measurement: remaining activity
COc1cc2c(Nc3ccc(Br)cc3F)ncnc2cc1OCC1CCN(C)CC1: 95.1%
O=C1NC(=O)/C(=C/c2ccc3c(c2)OC(F)(F)O3)S1: 102%
FC(F)(F)c1ccc(/C=C/c2nc(COc3ccc(CCCCn4ccnn4)cc3)co2)cc1: 111%
O=c1c(-c2ccc(F)cc2)c(-c2ccncc2)[nH]n1-c1ccc(Cl)cc1: 110%
NC(=O)c1ccc(-c2nc(-c3ccc4c(c3)OCCO4)c(-c3ccccn3)[nH]2)cc1: 105%
N#CC(c1ccnc(NCCc2cccnc2)n1)c1nc2ccccc2s1 (centres unmarked): 80.9%
CC(C)n1cnc2c(Nc3cccc(Cl)c3)nc(NCCO)nc21: 82.5%

Mixed results
OCCN1CCN(CCCN2c3ccccc3Sc3ccc(Cl)cc32)CC1  serum albumin (mouse, serum; dose not given): 2.3 ± 0.2 mg/dL

Excerpt of the above (sample 3):
N#CC(c1ccnc(NCCc2cccnc2)n1)c1nc2ccccc2s1 (centres unmarked): 80.9%
